# Measured values of several laboratories.
# Each line is one published result; not all experiments were run side by side. Numbers after ± are the reported error. Where no end group is shown, it is not given here. [ ]: non-standard residue; d: D form. * marks the point of attachment.
# SPIN1 50-262: SPIN1 50-262 (Homo sapiens, UniProt Q9Y657)
# UniProt Q9Y657, sequence (whole entry, looked up): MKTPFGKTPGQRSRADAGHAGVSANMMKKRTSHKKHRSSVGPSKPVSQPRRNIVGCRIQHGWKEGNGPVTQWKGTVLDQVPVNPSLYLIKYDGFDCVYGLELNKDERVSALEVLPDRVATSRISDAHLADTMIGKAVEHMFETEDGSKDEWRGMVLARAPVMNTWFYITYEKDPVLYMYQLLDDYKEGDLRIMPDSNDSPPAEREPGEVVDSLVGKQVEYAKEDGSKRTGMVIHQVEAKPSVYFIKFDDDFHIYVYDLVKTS
# ORF1 3C-like protease: ORF1, 3C-like protease (Southampton virus, UniProt Q04544)
# B1: YWHAE (Homo sapiens, UniProt P62258-1); chain MDDREDLVYQAKLAEQAERYDEMVESMKKVAGMDVELTVEERNLLSVAYKNVIGARRASWRIISSIEQKEENKGGEDKLKMIREYRQMVETELKLICCDILDVLDKHLIPAANTGESKVFYYKMKGDYHRYLAEFATGNDRKEAAENSLVAYKAASDIAMTELPPTHPIRLGLALNFSVFYYEILNSPDRACRLAKAAFDDAIAELDTLSEESYKDSTLIMQLLRDNLTLWTSDMQGDGEEQNKEALQDVEDENQ
# B2: IgG1 antibody IgG1 (Homo sapiens); V domains shown; VH QVQLVQSGAQLKKPGESLKISCKGSGYNFSRYWIAWVRHMPGKGLEVMGIIYPDDSDTRYSPSVRGQVTISADKSTSIVYLQWSSLKASDTGIYYCARFGAGMTGMPRYFDTTRWFDPWGQGTQVTVSS; VL DQSVLTQPPSVSGAPGQRVTISCLGGSSNIGAGYDVHWYQHLPGAAPKLLISGNSNRPSGVPARFSGSKSGTSASLAITGLQAEDEADYYCQSYDNDLSQVFGGGTKLTVL
# B3: HBx 1-120 R26C (Hepatitis B virus, UniProt P03165); chain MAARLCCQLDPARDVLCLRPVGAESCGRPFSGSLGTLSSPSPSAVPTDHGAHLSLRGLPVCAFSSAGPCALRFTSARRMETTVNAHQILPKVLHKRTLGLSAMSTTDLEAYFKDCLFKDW
# B4: vpr H78C (HIV-1, UniProt P12520); sequence looked up; chain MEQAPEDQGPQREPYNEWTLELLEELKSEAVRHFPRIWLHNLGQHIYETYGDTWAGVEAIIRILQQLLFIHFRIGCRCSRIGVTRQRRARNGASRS
# B5: VP35 1-215 (Zaire ebolavirus, UniProt Q05127); chain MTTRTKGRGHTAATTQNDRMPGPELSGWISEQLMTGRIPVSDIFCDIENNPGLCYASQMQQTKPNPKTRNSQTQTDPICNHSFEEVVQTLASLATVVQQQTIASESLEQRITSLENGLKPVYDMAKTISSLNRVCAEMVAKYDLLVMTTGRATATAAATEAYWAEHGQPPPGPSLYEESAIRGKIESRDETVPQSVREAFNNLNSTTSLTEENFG
# B6: CCL1 (Homo sapiens, UniProt P22362); chain KSMQVPFSRCCFSFAEQEIPLRAILCYRNTSSICSNEGLIFKLKRGKEACALDTVGWVQRHRKMLRHCPSKRK
# B7: motavizumab Fab; V domains shown; VH QVTLRESGPALVKPTQTLTLTCTFSGFSLSTAGMSVGWIRQPPGKALEWLADIWWDDKKHYNPSLKDRLTISKDTSKNQVVLKVTNMDPADTATYYCARDMIFNFYFDVWGQGTTVTVSS; VL DIQMTQSPSTLSASVGDRVTITCSASSRVGYMHWYQQKPGKAPKLLIYDTSKLASGVPSRFSGSGSGTEFTLTISSLQPDDFATYYCFQGSGYPFTFGGGTKVEIK
# UniProt Q96AX9, sequence (whole entry, looked up): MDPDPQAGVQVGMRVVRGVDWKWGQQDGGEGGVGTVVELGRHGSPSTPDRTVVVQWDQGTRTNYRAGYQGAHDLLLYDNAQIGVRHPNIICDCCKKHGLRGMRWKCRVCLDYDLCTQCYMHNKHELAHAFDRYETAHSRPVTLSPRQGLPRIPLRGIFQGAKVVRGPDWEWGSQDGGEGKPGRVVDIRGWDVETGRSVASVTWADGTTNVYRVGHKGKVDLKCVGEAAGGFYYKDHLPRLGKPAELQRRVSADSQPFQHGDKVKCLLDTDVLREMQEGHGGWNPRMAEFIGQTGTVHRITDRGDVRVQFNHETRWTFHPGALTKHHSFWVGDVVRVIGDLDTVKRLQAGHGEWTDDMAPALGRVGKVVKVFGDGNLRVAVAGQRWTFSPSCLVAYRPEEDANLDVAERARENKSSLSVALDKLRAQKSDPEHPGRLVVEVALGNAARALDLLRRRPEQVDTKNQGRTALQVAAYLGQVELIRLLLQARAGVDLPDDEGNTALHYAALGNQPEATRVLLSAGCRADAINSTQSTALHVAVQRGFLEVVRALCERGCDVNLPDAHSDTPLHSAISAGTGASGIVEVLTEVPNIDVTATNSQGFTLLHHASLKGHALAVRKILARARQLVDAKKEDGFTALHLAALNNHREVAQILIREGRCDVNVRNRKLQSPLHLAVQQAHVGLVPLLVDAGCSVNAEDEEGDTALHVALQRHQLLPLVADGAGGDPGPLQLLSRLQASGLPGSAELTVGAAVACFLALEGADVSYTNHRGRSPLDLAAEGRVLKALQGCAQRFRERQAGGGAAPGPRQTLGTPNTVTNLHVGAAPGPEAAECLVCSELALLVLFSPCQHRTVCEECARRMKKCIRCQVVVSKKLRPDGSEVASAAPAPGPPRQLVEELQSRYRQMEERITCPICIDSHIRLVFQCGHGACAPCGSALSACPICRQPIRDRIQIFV
# UniProt Q9Y4B6, sequence (whole entry, looked up): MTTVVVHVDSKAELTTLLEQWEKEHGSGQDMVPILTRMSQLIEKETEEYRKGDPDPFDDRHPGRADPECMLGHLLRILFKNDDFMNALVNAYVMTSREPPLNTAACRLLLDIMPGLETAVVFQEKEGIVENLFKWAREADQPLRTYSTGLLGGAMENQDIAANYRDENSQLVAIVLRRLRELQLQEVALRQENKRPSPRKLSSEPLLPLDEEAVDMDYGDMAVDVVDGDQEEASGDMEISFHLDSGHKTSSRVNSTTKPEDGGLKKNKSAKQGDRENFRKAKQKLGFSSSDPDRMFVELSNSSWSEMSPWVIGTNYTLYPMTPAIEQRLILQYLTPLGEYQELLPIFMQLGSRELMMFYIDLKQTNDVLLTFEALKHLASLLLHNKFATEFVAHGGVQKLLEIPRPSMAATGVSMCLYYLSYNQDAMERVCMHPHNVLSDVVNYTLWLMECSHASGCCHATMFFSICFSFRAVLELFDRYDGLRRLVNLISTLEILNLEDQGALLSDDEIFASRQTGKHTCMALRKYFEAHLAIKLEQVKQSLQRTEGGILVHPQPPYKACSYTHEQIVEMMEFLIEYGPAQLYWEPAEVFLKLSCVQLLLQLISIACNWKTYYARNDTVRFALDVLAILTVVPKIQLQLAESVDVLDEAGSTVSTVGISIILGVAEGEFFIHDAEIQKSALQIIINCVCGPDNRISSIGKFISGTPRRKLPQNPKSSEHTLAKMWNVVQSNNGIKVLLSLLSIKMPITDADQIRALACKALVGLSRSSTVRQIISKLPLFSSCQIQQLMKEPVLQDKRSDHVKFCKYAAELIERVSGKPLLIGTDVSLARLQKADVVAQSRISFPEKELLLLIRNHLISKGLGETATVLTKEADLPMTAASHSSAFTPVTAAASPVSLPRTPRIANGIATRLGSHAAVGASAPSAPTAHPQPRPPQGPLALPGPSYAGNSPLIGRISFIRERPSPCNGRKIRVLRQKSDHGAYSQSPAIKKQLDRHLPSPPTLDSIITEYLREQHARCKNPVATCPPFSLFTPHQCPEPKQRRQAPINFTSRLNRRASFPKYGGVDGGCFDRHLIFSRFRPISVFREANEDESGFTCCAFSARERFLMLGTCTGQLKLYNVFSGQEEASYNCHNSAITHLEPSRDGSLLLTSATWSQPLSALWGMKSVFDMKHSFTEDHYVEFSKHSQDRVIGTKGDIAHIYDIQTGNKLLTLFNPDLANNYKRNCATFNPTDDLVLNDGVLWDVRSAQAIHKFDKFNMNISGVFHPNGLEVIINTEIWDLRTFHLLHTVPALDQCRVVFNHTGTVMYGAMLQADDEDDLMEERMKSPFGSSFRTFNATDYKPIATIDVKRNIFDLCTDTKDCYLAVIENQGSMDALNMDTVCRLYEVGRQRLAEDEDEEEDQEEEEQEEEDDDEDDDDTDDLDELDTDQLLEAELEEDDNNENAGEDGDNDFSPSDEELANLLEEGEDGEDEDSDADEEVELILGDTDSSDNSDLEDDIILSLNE
Molecule,tested on,assay,test system,setting,measurement,result
B1 (YWHAE),"NS3 full-length, GST fusion (dengue virus 2, UniProt P14340)",pull-down,,,binding,binds
B2 (IgG1 antibody IgG1),S receptor-binding domain (SARS-CoV),"pseudovirus neutralisation, neutraliser","antibody, Vero",,IC50,0.07 µg/mL
[dR][dR][dR][dR][dR][dR][dR][dR][dR]VLR (peptide; D-Arg residues 1-9),"lethal factor mature (Bacillus anthracis, UniProt P15917)","enzyme activity, inhibitor, steady-state kinetics",peptide,,Ki,12.2 nM
"MSDNGPQNQRNAPRITFGGPSDSTG (N 1-25 (SARS-CoV-2, UniProt P0DTC9))","G3BP1 (Homo sapiens, UniProt Q13283)",ITC,peptide,,Kd,7.9 µM
B3 (HBx 1-120 R26C),SPIN1 50-262,BLI,,,Kd,0.09115 ± 0.00061 µM
SARS-CoV spike RBD fragment (SARS-CoV) (sequence not shown),ACE2 fragment (Homo sapiens),SPR,,,koff,0.048 s⁻¹
B4 (vpr H78C),"DCAF1 1046-1396 (Homo sapiens, UniProt Q9Y4B6)",crystal structure,,"pH 5.6, 16 °C, co-crystal with UNG2",binding,binds
DKRTQFWRYFAGN (SLC25A5 residues 104-116),"Vpr 52-96 (HIV-1, UniProt P69726)",SPR,peptide,,Kd,35 µM
B5 (VP35 1-215),"MIB2 1-836 (Homo sapiens, UniProt Q96AX9)",ITC,,,Kd,5.4 ± 2.5 µM
BM2 transmembrane peptide (Influenza B virus),,"solid-state NMR, measured: His19",VM+ membrane pellets,"243 K, membrane-bound tetramer, no drug, third protonation",pKa,4.5
nucleocapsid protein N full length (SARS-CoV),itself,AUC,,,subunits per oligomer,2
B6 (CCL1),"ORF74 whole (human herpesvirus 8, UniProt Q98146)","competition with anti-ORF74 antibody binding, flow cytometry",HEK293A.ORF74,,pIC50,6.46
"Ac-DEFQLQ-pNA (N-acetyl, C-p-nitroanilide; pNA = O=[N+]([O-])c1ccc(N*)cc1)",ORF1 3C-like protease,"substrate, pNA substrate cleavage",,pH 8.5,kcat/Km,416 M⁻¹ s⁻¹
"CGUACGCGGAAUACUUCGAAA / UCGAAGTAUUCCGCGTACGUG (dsRNA; 5' phosphate, 3' overhangs, fluorescein-dT)","p19 1-172 (Carnation Italian ringspot virus, UniProt Q66104)",stopped-flow fluorescence quenching,,,Kd,0.00037 ± 8e-05 µM
B7 (motavizumab Fab),RSV F peptide fragment,crystal structure,Fab,,binding,binds
"Ac-EFQLQ-pNA (N-acetyl, C-pNA; pNA = O=[N+]([O-])c1ccc(N*)cc1)",ORF1 3C-like protease,"substrate, pNA substrate cleavage",,pH 8.5,kcat/Km,463 M⁻¹ s⁻¹
C protein fragment (Measles virus) (sequence not shown),"L protein (Measles virus, UniProt P12576)",cryo-EM structure,,,binding,binds
SLEV[pT]EAD (RAD9 residues 188-195 (Saccharomyces cerevisiae); phosphothreonine; pT = C[C@@H](OP(=O)(O)O)[C@H](N)C(=O)O),"embR 1-388 (Mycobacterium tuberculosis, UniProt P9WGJ9)",BLI,peptide,,Kd,1.52 µM
RAD18 fragment (Homo sapiens) (sequence not shown),"M (Nipah virus, UniProt Q9IK90)",pull-down,,,binding,binds
"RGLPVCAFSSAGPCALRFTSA (HBx 56-76 (Hepatitis B virus, UniProt P03165))",SPIN1 50-262,NMR titration,peptide,,binding,binds
"VP7 (Rhesus rotavirus, UniProt P12476)","VP5* VP4 fragment (rhesus rotavirus, UniProt P12473)",cryo-EM,,"local reconstruction, upright conformation",binding,binds
LGALS3 fragment (Homo sapiens) (sequence not shown),S RBD (SARS-CoV-2),native MS,,"pH 7.4, ammonium acetate 200 mM, total glycoform signal area",Kd,5.2 ± 0.4 µM

# For quick reference, copied from above:
Molecule,tested on,assay,test system,setting,measurement,result
C protein fragment (Measles virus) (sequence not shown),"L protein (Measles virus, UniProt P12576)",cryo-EM structure,,,binding,binds
SARS-CoV spike RBD fragment (SARS-CoV) (sequence not shown),ACE2 fragment (Homo sapiens),SPR,,,koff,0.048 s⁻¹
B2 (IgG1 antibody IgG1),S receptor-binding domain (SARS-CoV),"pseudovirus neutralisation, neutraliser","antibody, Vero",,IC50,0.07 µg/mL
